Measurements from different studies.
Sequence of UniProt P04062 (whole entry, unmodified, looked up): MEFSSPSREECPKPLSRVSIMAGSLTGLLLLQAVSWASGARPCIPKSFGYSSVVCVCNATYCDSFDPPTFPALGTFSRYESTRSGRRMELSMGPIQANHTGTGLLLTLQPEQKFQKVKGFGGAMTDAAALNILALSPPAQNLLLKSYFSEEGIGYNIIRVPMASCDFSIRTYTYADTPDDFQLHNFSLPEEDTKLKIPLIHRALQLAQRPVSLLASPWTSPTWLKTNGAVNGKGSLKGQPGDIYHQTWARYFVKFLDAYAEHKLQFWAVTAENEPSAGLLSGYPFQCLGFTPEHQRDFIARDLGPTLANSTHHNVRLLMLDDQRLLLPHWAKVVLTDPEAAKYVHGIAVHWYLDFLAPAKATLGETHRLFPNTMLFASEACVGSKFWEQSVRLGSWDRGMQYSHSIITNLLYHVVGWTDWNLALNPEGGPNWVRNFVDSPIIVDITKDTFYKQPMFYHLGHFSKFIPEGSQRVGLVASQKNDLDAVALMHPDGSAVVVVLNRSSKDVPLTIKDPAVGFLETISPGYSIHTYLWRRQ

`COC1CN([C@H]2CC[C@H]([C@@]3(C)Oc4c(Cl)cc(C(=O)NCc5c(SC)cc(C)[nH]c5=O)c(C)c4O3)CC2)C1` — result for “log2 fold change”: 1.45 (RNA-seq, measured: AKT3; human, whole blood; dose not given, 24 h; relative to: pretreatment baseline).
For `CC(=O)[O-].O.[Cu+2].[O-]c1ccc(Br)cc1C=NCCN1CCOCC1`, the inhibition was 5.42% (superoxide scavenging; 40 µM).
For `C=CC(=O)Nc1cccc(Cn2ncc3cnc(Nc4cnn(CCOC)c4)nc32)c1`, “percent of control” read 100% (MAST1 human; binding, KINOMEscan; 100 nM; lower = stronger binding).
For `CC(CC1CC2=C(CC1(C)C)C(C)(C)CCC2)=NNC(N)=S` (centres unmarked), the relative translation was 107% (Trypanosoma cruzi; reporter mRNA translation, inhibitor, measured: capped polyadenylated Renilla luciferase mRNA; cell-free extract; concentration not given; relative to: control RNA).
The IC50 of `C[C@@H](OCCCCCN1C[C@H](O)[C@@H](O)[C@H](O)[C@H]1CO)c1ccc(-c2ccccc2)cc1` is reported as 300 µM (Lysosomal acid glucosylceramidase (GBA1, Homo sapiens, UniProt P04062, R534H); inhibitor, 4MU-β-D-glucopyranoside; together with: 4MU-β-D-glucopyranoside).
Under “log2 fold change”, `CN1CCCNC(=O)c2cccc(c2)C(=O)NCCCN(C)CCCNc2cccc3c2C(=O)c2cccc(c2C3=O)NCCC1` is recorded as -0.914 (SAS; RNA-Seq, measured: ORC2 mRNA; 1 µM, 6 h; relative to: untreated cells).
With `Cc1cc(NC(=O)C23CC4CC(C2)CC(n2cnc([N+](=O)[O-])n2)(C4)C3)no1` the relative translation was 113% (Trypanosoma cruzi; reporter mRNA translation, inhibitor, measured: capped polyadenylated Renilla luciferase mRNA; cell-free extract; concentration not given; relative to: control RNA).
The IC50 of `CNS(=O)(=O)Nc1nccc(Cc2c(C)c3ccc(Oc4ncccc4F)cc3oc2=O)c1F` is reported as 0.137 µM (NCI-H1581; cell viability; 7 days).
`C=C(NC(=O)c1csc(-c2nc3c(cc2O)-c2nc(cs2)C(=O)NC(C(C)O)C(=O)NC(=C(C)OC)c2nc(cs2)C(=O)NC2c4nc(cs4)C(=O)NC(COC(=O)c4c5c6c(cccc6n4O)COC(=O)C(OC4CC(C)(O)C(N(C)C)C(C)O4)C2OC5)c2nc-3cs2)n1)C(N)=O` (centres unmarked) gave an ED50 of 0.64 mg/kg (Staphylococcus; MRSA-38, mouse systemic infection; intravenous; survival).
Under “log2 fold change”, `Cc1ncsc1-c1ccc(C(C)NC(=O)C2CC(O)CN2C(=O)C(NC(=O)CCCCCCCCCCN2CCCC(Nc3ncc(Cl)c(Nc4ccccc4S(=O)(=O)C(C)C)n3)C2)C(C)(C)C)cc1` (centres unmarked) is recorded as -1.86 (22Rv1; RNA-seq, measured: STUM mRNA; concentration not given; relative to: DMSO).
The remaining binding of `Nc1ncc(-c2cc(-c3cnn(CC(F)(F)F)c3)ncc2F)nc1C(=O)NC1CNCC(F)C1` (centres unmarked) is reported as 90% (STK33; KINOMEscan; 1 µM; relative to: DMSO control).

A few entries again:
The IC50 of `C[C@@H](OCCCCCN1C[C@H](O)[C@@H](O)[C@H](O)[C@H]1CO)c1ccc(-c2ccccc2)cc1` is reported as 300 µM (Lysosomal acid glucosylceramidase (GBA1, Homo sapiens, UniProt P04062, R534H); inhibitor, 4MU-β-D-glucopyranoside; together with: 4MU-β-D-glucopyranoside).
